{"data": "Measurements collected from several papers", "note": "Parts stem from different laboratories: compare values within a part only. Positions count from the first letter of the parent shown."}
{"data": "Series 1", "target": "Centromere-binding protein 1, full length, N-terminal tag (CBF1, Saccharomyces cerevisiae, UniProt P17106, residues 1-351)", "technique": "protein-binding microarray", "form": "double-stranded DNA, one strand shown", "matrix": "in vitro", "tested at": "0.8 µM", "notes": "whole 60-bp probe, no competitor", "direction": "higher = stronger binding", "UniProt P17106, sequence (whole entry, looked up)": "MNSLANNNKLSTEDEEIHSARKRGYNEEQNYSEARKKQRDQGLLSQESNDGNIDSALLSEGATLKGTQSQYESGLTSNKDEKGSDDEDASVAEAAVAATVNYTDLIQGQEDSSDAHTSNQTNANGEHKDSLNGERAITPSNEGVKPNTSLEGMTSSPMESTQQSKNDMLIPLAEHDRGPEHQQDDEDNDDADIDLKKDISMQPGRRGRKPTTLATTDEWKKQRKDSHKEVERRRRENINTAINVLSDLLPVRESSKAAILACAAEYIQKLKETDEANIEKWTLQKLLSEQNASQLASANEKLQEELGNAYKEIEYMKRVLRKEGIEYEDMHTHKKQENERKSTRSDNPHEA"}
{"Oligonucleotide": "CTAACCACATCTTCAAACGTGCATATAGAATGGTTCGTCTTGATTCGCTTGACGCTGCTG", "fluorescence intensity [a.u.]": 576}
{"Oligonucleotide": "GAAAATTTATTAGCTCACGTGTATACATGTATATAGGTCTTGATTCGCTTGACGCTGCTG", "fluorescence intensity [a.u.]": 5220}
{"Oligonucleotide": "GAATTACAACTATAATGCATGACATGATGAATATAGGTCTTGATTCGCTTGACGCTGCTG", "fluorescence intensity [a.u.]": 586}
{"Oligonucleotide": "CCTAACTACTATAGTGACTTCTCATAGCTTCGTACAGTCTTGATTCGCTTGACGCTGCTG", "fluorescence intensity [a.u.]": 518}
{"Oligonucleotide": "GAATGTATCTATACTAGCGTGGTGTGCATAATTTAGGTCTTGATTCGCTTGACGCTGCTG", "fluorescence intensity [a.u.]": 545}
{"Oligonucleotide": "GAATCATCATTTAATCATGATGATAATATTGATTAGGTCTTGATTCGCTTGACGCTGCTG", "fluorescence intensity [a.u.]": 547}
{"Oligonucleotide": "CTACAGGATAAATCCAGTGTGACCCGGACTGAATTCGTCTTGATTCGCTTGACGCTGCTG", "fluorescence intensity [a.u.]": 532}
{"Oligonucleotide": "CTAAAGATCAAATCTCACATGTTTATCATTCATTTCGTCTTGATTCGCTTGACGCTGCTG", "fluorescence intensity [a.u.]": 604}
{"data": "Series 2", "target": "Histone acetyltransferase KAT6A, both winged helices, GST fusion (KAT6A, Homo sapiens, UniProt Q92794, residues 1-181)", "technique": "protein binding microarray", "form": "double-stranded DNA, one strand shown", "matrix": "in vitro", "tested at": "not given", "notes": "8-mer, flanks averaged, mean of 2 arrays, mostly near background", "relative to": "not given", "direction": "higher = stronger binding", "Construct (chain)": "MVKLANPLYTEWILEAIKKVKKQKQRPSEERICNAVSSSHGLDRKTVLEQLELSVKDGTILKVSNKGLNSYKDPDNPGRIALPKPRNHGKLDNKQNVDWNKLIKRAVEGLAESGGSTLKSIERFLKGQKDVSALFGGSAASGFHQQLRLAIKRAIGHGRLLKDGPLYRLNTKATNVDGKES"}
{"Oligonucleotide": "ATAAGCGC", "E-score": 0.256}
{"Oligonucleotide": "ATCGAGAG", "E-score": -0.11}
{"Oligonucleotide": "TACGTGCA", "E-score": -0.0215}
{"Oligonucleotide": "ACTGGAGA", "E-score": -0.0765}
{"Oligonucleotide": "ATCAGTCG", "E-score": 0.0172}
{"Oligonucleotide": "ACAGGAAG", "E-score": -0.074}
{"Oligonucleotide": "ATCGGATG", "E-score": 0.0224}
{"Oligonucleotide": "GATCACGA", "E-score": -0.0843}
{"data": "Series 3", "target": "CEBPA, bZIP domain (human)", "technique": "DHFR protein complementation", "matrix": "yeast", "notes": "single substitutions, most at no-binding floor", "relative to": "wild-type JUN-FOS pair", "direction": "higher = stronger binding", "starting sequence": "JUN, bZIP domain (human); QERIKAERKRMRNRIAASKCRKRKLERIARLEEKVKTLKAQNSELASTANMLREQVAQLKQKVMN; partner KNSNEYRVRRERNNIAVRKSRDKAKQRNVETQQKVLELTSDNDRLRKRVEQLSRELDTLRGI"}
{"Substitution": "M51L", "binding fitness": "-1.44 natural log"}
{"Substitution": "M51W", "binding fitness": "-1.47 natural log"}
{"Substitution": "L31Q", "binding fitness": "-1.42 natural log"}
{"Substitution": "L52I", "binding fitness": "-1.5 natural log"}
{"Substitution": "E54I", "binding fitness": "-1.41 natural log"}
{"Substitution": "E32D", "binding fitness": "-1.43 natural log"}
{"Substitution": "E44V", "binding fitness": "-1.47 natural log"}
{"Substitution": "M51R", "binding fitness": "-1.43 natural log"}
{"data": "Mixed results", "starting sequence": "PafA, mature enzyme, eGFP fusion (Elizabethkingia meningoseptica, UniProt Q9KJX5); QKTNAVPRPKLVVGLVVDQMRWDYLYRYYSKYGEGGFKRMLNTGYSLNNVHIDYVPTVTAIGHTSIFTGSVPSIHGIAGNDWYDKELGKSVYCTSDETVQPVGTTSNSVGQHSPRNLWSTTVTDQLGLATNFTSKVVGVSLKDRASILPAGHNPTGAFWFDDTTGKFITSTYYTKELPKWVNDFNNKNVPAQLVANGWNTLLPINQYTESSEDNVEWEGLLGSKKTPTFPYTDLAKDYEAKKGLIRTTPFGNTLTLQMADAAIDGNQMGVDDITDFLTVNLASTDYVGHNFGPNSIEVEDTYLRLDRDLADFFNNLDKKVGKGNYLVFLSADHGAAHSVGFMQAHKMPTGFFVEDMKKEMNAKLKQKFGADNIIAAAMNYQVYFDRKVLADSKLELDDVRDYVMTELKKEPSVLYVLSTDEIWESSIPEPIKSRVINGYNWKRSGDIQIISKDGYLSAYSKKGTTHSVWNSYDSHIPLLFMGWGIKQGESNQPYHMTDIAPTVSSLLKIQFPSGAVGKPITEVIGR"}
{"Substitution": "H337V", "target": "inorganic phosphate, free oxyanion", "assay": "microfluidic competitive inhibition", "system": "in vitro, cell-free expressed", "setting": "not given, derived from inhibition constants, unchanged parent 615000 nM", "how to read": "lower = stronger binding", "measurement": "phosphate dissociation constant", "value": "476 µM"}
{"note": "Some of these lines once more (series 1):"}
{"Oligonucleotide": "CTAACCACATCTTCAAACGTGCATATAGAATGGTTCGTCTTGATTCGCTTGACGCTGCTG", "fluorescence intensity [a.u.]": 576}
{"Oligonucleotide": "CTAAAGATCAAATCTCACATGTTTATCATTCATTTCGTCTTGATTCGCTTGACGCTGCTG", "fluorescence intensity [a.u.]": 604}
{"Oligonucleotide": "GAATTACAACTATAATGCATGACATGATGAATATAGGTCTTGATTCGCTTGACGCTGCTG", "fluorescence intensity [a.u.]": 586}
